Results collected from several papers.
Values joined by “and” are separate records of one study, mostly repeats; a detail may differ. Numbers after ± are the reported error. Converted amounts (≈) assume the structure as drawn.

CC(=Nc1ccc(N=Cc2ccc3[nH]cnc3c2)cc1)N(C)C — worm burden reduction (Necator americanus; infected hamsters; oral, 50 mg/kg single; reference: untreated): 100%
CC(C)n1ncc2c(C(=O)NCC3(C)CNC3)cc(C3CC3)nc21 — plaque area (Enterovirus D68; viral replication; RD, recombinant wild-type US/MO/14-18947; 1 µM; reference: untreated): 0%
CC(=Nc1ccc(N=Cc2ccc[nH]2)cc1)N(C)C — worm burden reduction (Necator americanus; infected hamsters; oral, 12.5 mg/kg single dose, 49 days post infection): 44.9%
N=C(N)c1ccc(OCc2ccc(Br)cc2COc2ccc(C(=N)N)cc2)cc1 — MIC in combination (Escherichia coli; BW25113; concentration not given, lowest-FICI combination, added: novobiocin): 12.5 µg/mL
COC(=O)[C@@H](NCc1cc2ccccc2nc1OCc1ccccc1)C(C)C — growth (Pseudomonas aeruginosa; 8 µg/mL, without pentamidine; reference: control): 95.5%
COc1c(O)cc2c(c1O)C(=O)c1c(cc(C)c(O)c1OC)C2=O — cell viability (HepaRG co-cultured with HK-2; MTT; 266.67 µM, 48 h; reference: untreated control): 5.61 ± 2.04%
CC(=Nc1ccc(N=Cc2ccncc2)cc1)N(C)C — worm burden reduction (Necator americanus; infected hamsters; oral, 50 mg/kg single; reference: untreated): 96.7 ± 3.3%
Cc1cc(OC(C)C)ccc1C(=O)C(C)(C)NC(=O)c1sccc1C — EC50 (Rhynchosporium secalis; mycelial growth; PSA medium; 20 °C): 0.91 µg/mL (≈ 2.53 µM)
O=C(O)C[C@H](O)C[C@H](O)/C=C/c1c(C2CC2)nc2ccccc2c1-c1ccc(F)cc1 — necrotic cells (COS-7; 3 µM, 24 h, 0.1% DMSO, unit not given; reference: vehicle control): 0.48 ± 0.15
Nc1nc(-c2ccccc2)nc2[nH]nc(Nc3ccc(C(F)(F)F)cc3)c12 — clinical score (coxsackievirus B3; 31-1-93, NMRI mice, CVB3 chronic myocarditis; oral, 100 mg/kg twice daily, day 21, dosed days 1 to 7, score scale 0 to 7; direction not given): 0.11
CC(=O)c1c(C)cc2cc(O)cc(O[C@@H]3O[C@H](CO)[C@@H](O)[C@H](O)[C@H]3O)c2c1O — cell viability (HepaRG co-cultured with HK-2; MTT; 66.67 µM, 48 h; reference: untreated control): 82.7 ± 13.3%
CN[C@H](CC(C)C)C(=O)N[C@H]1C(=O)N[C@@H](CC(N)=O)C(=O)N[C@H]2C(=O)N[C@H]3C(=O)N[C@H](C(=O)N[C@H](C(=O)O)c4cc(O)cc(O)c4-c4cc3ccc4O)[C@H](O)c3ccc(c(Cl)c3)Oc3cc2cc(c3O[C@@H]2O[C@H](CO)[C@@H](O)[C@H](O)[C@H]2O[C@H]2C[C@](C)(N)[C@H](O)[C@H](C)O2)Oc2ccc(cc2Cl)[C@H]1O — MIC50 (Streptococcus pneumoniae; penicillin-resistant, 10 isolates; serum 50%): 0.5 µg/mL (≈ 0.345 µM)
CN[C@H](CC(C)C)C(=O)N[C@H]1C(=O)N[C@@H](CC(N)=O)C(=O)N[C@H]2C(=O)N[C@H]3C(=O)N[C@H](C(=O)N[C@H](C(=O)O)c4cc(O)cc(O)c4-c4cc3ccc4O)[C@H](O)c3ccc(c(Cl)c3)Oc3cc2cc(c3O[C@@H]2O[C@H](CO)[C@@H](O)[C@H](O)[C@H]2O[C@H]2C[C@](C)(N)[C@H](O)[C@H](C)O2)Oc2ccc(cc2Cl)[C@H]1O — bacterial load (Staphylococcus epidermidis; 9397, female ICR mice, peritonitis, liver; dose not given): 4.84 log CFU and 5.86 log CFU and 5.31 log CFU and 5.19 log CFU and 5.54 log CFU and 5.08 log CFU
COC(=O)[C@H](Cc1c[nH]c2ccccc12)NCc1cc2ccccc2nc1SC — growth (Pseudomonas aeruginosa; 128 µg/mL, without pentamidine; reference: control): 102%
CC(C)C[C@H](NC(=O)C[C@H](O)[C@H](CC(C)C)NC(=O)[C@H](Cc1c[nH]cn1)NC(=O)CNC(=O)[C@@H](NC(=O)[C@H](C)NC(=O)[C@H](Cc1c[nH]c2ccccc12)NC(=O)[C@H](CCC(N)=O)NC(=O)[C@@H](Cc1ccccc1)NC(=O)COCCOCCNC(=O)CCC(C(=O)O)N1CCN(CC(=O)O)CCN(CC(=O)O)CCN(CC(=O)O)CC1)C(C)C)C(N)=O (stereo partly drawn) [lutetium-177 labelled] — tissue uptake (female BALB/c nu/nu mice, blood; intravenous, 100 pmol, 2 h, added: PA 300 µg): 0.08 ± 0.04 %ID/g

A few entries again:
CC(C)n1ncc2c(C(=O)NCC3(C)CNC3)cc(C3CC3)nc21 — plaque area (Enterovirus D68; viral replication; RD, recombinant wild-type US/MO/14-18947; 1 µM; reference: untreated): 0%
CC(=Nc1ccc(N=Cc2ccc[nH]2)cc1)N(C)C — worm burden reduction (Necator americanus; infected hamsters; oral, 12.5 mg/kg single dose, 49 days post infection): 44.9%
